Measured values from different studies.
Protocols differ between the studies behind these lines. Numbers after ± are the reported error.

Structure (SMILES)	test	test system	setting	how to read	measurement	result
N=C(N)NCCC[C@@H]1NC(=O)[C@H](CCCCNC(=O)CCOCCOCCOCCOCCNC(=O)CN2CCN(CC(=O)O)CCN(CC(=O)O)CCN(CC(=O)O)CC2)NC(=O)[C@@H](Cc2ccccc2)NC(=O)[C@H](CC(=O)O)NC(=O)CNC1=O [indium-111 labelled]		female athymic nude mice, heart	intravenous, 3 µCi, 4 h, U-87 MG glioma xenograft		tissue uptake	0.27 ± 0.03 %ID/g
C=Cc1c(C)c2cc3nc(c4c5[nH]c(cc6nc(cc1[nH]2)C(C)=C6CC)c(C)c5C(=O)C4)[C@@H](CCC(=O)NCC(=O)N1CCC[C@H]1C(=O)N[C@@H](CC(C)C)C(=O)NCC(=O)N[C@@H](Cc1ccccc1)C(=O)N[C@@H](CCCNC(=N)N)C(=O)N[C@H](C(=O)NCC(=O)N[C@@H](CCCCN)C(N)=O)C(C)C)[C@@H]3C		C57BL/6J mouse, DMM osteoarthritis model, knee articular cartilage	intra-articular, 6 h		penetration depth	50 µm
N=C(N)NCCC[C@@H]1NC(=O)[C@H](CCCCNC(=O)CC[C@H](NC(=O)CCOCCOCCOCCOCCNC(=O)CN2CCN(CC(=O)O)CCN(CC(=O)O)CCN(CC(=O)O)CC2)C(=O)NCCCC[C@@H]2NC(=O)[C@@H](Cc3ccccc3)NC(=O)[C@H](CC(=O)O)NC(=O)CNC(=O)[C@H](CCCNC(=N)N)NC2=O)NC(=O)[C@@H](Cc2ccccc2)NC(=O)[C@H](CC(=O)O)NC(=O)CNC1=O [indium-111 labelled]		female athymic nude mice, brain	intravenous, 3 µCi, 1 h, U-87 MG glioma xenograft		tissue uptake	0.1 ± 0.02 %ID/g
CC(C)C[C@@H]1NC(=O)[C@H](C(C)C)NC(=O)[C@H](CO)NC(=O)CNC(=O)CNC(=O)[C@H](CCCNC(=N)N)NC(=O)[C@@H]2CCCN2C(=O)[C@@H](NC(=O)CC[C@H](NC(=O)c2ccc(N(C)Cc3cnc4nc(N)nc(N)c4n3)cc2)C(=O)O)C(C)(C)SSC[C@@H](C(=O)O)NC(=O)CNC(=O)[C@H]([C@@H](C)O)NC(=O)[C@H](C(C)C)NC1=O	HPLC	Phosphate buffer	pH 7.0, 70 °C		degradation rate constant	0.0012 h⁻¹
CCCCCCCCCCCCCCCCCC(=O)OC[C@H](NC(=O)[C@H](Cc1c[nH]c2ccccc12)NC(=O)[C@H](Cc1c[nH]cn1)NC(=O)[C@@H]1CCC(=O)N1)C(=O)N[C@@H](Cc1ccc(O)cc1)C(=O)N[C@H](CC(C)C)C(=O)N[C@@H](CC(C)C)C(=O)N[C@@H](CCCNC(=N)N)C(=O)N1CCC[C@H]1C(=O)NCC		human plasma	1 mg/mL, 5 weeks, 37 °C, from DMSO stock		degradation	99.3%
CSCC[C@H](NC(=O)[C@H](CC(C)C)NC(=O)[C@H](Cc1c[nH]cn1)NC(=O)CNC(=O)[C@@H](NC(=O)[C@H](C)NC(=O)[C@H](Cc1c[nH]c2ccccc12)NC(=O)[C@H](CCC(N)=O)NC(=O)CCCCCNC(=O)CNC(=O)CNC(=O)CNC(=O)CSC(C)=O)C(C)C)C(N)=O [technetium-99m labelled]		Swiss mouse, spleen	intravenous, 18.5 MBq, 30 min		tissue uptake	0.64 ± 0.05 %ID/g
N=C(N)NCCC[C@@H]1NC(=O)[C@H](CCCCNC(=O)CCOCCOCCOCCOCCNC(=O)CC[C@H](NC(=O)CCOCCOCCOCCOCCNC(=O)c2ccc(NN)nc2)C(=O)NCCOCCOCCOCCOCCC(=O)NCCCC[C@@H]2NC(=O)[C@@H](Cc3ccccc3)NC(=O)[C@H](CC(=O)O)NC(=O)CNC(=O)[C@H](CCCNC(=N)N)NC2=O)NC(=O)[C@@H](Cc2ccccc2)NC(=O)[C@H](CC(=O)O)NC(=O)CNC1=O [technetium-99m labelled]		female athymic nude mice, U-87 MG glioma xenograft, tumour and muscle	intravenous, 2.5 µCi, 60 min	relative to: tumour over muscle	tissue-to-tissue ratio	13.7 ± 2.21
CCCCCC(=O)N[C@H]1CSCc2cc(CSCCNC(=O)CCCCCNC(=O)CC[C@H](NC(=O)CCC(C(=O)O)N3CCN(CC(=O)O)CCN(CC(=O)O)CCN(CC(=O)O)CC3)C(=O)NCCCOc3ccc4nccc(C(=O)NCC(=O)N5CC(F)(F)C[C@H]5C#N)c4c3)cc(c2)CSC[C@@H](C(=O)O)NC(=O)[C@H](Cc2ccccc2)NC(=O)[C@H](CCC(N)=O)NC(=O)[C@H]([C@@H](C)O)NC(=O)[C@@H]2CCCN2C(=O)[C@@H]2CCCN2C1=O (stereo partly drawn)	radio-HPLC	mouse	intravenous		time intact in blood	≥ 30 min
N=C(N)NCCC[C@@H]1NC(=O)[C@H](CCCCNC(=O)CC[C@H](NC(=O)CCOCCOCCOCCOCCNC(=O)CC[C@H](NC(=O)CN2CCN(CC(=O)O)CCN(CC(=O)O)CCN(CC(=O)O)CC2)C(=O)NCCOCCOCCOCCOCCC(=O)N[C@@H](CCC(=O)NCCCC[C@@H]2NC(=O)[C@@H](Cc3ccccc3)NC(=O)[C@H](CC(=O)O)NC(=O)CNC(=O)[C@H](CCCNC(=N)N)NC2=O)C(=O)NCCCC[C@@H]2NC(=O)[C@@H](Cc3ccccc3)NC(=O)[C@H](CC(=O)O)NC(=O)CNC(=O)[C@H](CCCNC(=N)N)NC2=O)C(=O)NCCCC[C@@H]2NC(=O)[C@@H](Cc3ccccc3)NC(=O)[C@H](CC(=O)O)NC(=O)CNC(=O)[C@H](CCCNC(=N)N)NC2=O)NC(=O)[C@@H](Cc2ccccc2)NC(=O)[C@H](CC(=O)O)NC(=O)CNC1=O [indium-111 labelled]		athymic nude mice, female, U-87 MG glioma xenograft, tumour and liver	intravenous, 4 h	relative to: tumour over liver	tumour to tissue ratio	2.93 ± 1.82
CC(C)C[C@H](NC(=O)[C@@H]1CCCN1C(=O)[C@H](CCCCN)NC(=O)[C@@H](N)CO)C(=O)N1CCC[C@H]1C(=O)N[C@@H](CCC(=O)O)C(=O)N[C@H](C(=O)N[C@H](C(=O)N[C@@H](CC(=O)O)C(=O)N[C@@H](CCC(=O)O)C(=O)N[C@@H](Cc1ccc(O)cc1)C(=O)N[C@@H](Cc1cn(CCOCCOCCOCCNC(=O)CCc2ccc(O)c(CN(CCN(CC(=O)O)Cc3cc(CCC(=O)NCCCC[C@H](NC(=O)N[C@@H](CCC(=O)O)C(=O)O)C(=O)O)ccc3O)CC(=O)O)c2)nn1)C(=O)O)[C@@H](C)O)C(C)C [gallium-68 labelled]		NMRI nu/nu mouse, LNCaP xenograft, submandibular gland	10 MBq, high molar activity		SUV	0.09 g/g
CCCC[C@H](NC(=O)CNC(=O)CNC(=O)CNC(=O)c1ccc(NN)nc1)C(=O)N[C@H]1CC(=O)NCCCC[C@@H](C(N)=O)NC(=O)[C@H](Cc2c[nH]c3ccccc23)NC(=O)[C@H](CCCNC(=N)N)NC(=O)[C@@H](Cc2ccccc2)NC(=O)[C@H](Cc2c[nH]cn2)NC1=O [technetium-99m labelled]		C57 mouse, B16/F1 melanoma, bone	intravenous, 2 h		uptake	0.08 ± 0.06 %ID/g
N=C(N)NCCC[C@@H]1NC(=O)[C@H](CCCCNC(=O)CCOCCOCCOCCOCCNC(=O)CC[C@H](NC(=O)CCOCCOCCOCCOCCNC(=O)CC[C@H](NC(=O)CN2CCN(CC(=O)O)CCN(CC(=O)O)CCN(CC(=O)O)CC2)C(=O)NCCOCCOCCOCCOCCC(=O)N[C@@H](CCC(=O)NCCOCCOCCOCCOCCC(=O)NCCCC[C@@H]2NC(=O)[C@@H](Cc3ccccc3)NC(=O)[C@H](CC(=O)O)NC(=O)CNC(=O)[C@H](CCCNC(=N)N)NC2=O)C(=O)NCCOCCOCCOCCOCCC(=O)NCCCC[C@@H]2NC(=O)[C@@H](Cc3ccccc3)NC(=O)[C@H](CC(=O)O)NC(=O)CNC(=O)[C@H](CCCNC(=N)N)NC2=O)C(=O)NCCOCCOCCOCCOCCC(=O)NCCCC[C@@H]2NC(=O)[C@@H](Cc3ccccc3)NC(=O)[C@H](CC(=O)O)NC(=O)CNC(=O)[C@H](CCCNC(=N)N)NC2=O)NC(=O)[C@@H](Cc2ccccc2)NC(=O)[C@H](CC(=O)O)NC(=O)CNC1=O [indium-111 labelled]		female athymic nude mice, brain	intravenous, 3 µCi, 1 h, U-87 MG glioma xenograft		tissue uptake	0.14 ± 0.03 %ID/g
CCCC[C@H](NC(=O)CNC(=O)CNC(=O)c1ccc(NN)nc1)C(=O)N[C@H]1CC(=O)NCCCC[C@@H](C(N)=O)NC(=O)[C@H](Cc2c[nH]c3ccccc23)NC(=O)[C@H](CCCNC(=N)N)NC(=O)[C@@H](Cc2ccccc2)NC(=O)[C@H](Cc2c[nH]cn2)NC1=O [technetium-99m labelled]		C57 mouse, B16/F1 melanoma, liver	2 h, together with: NDP-MSH 6.07 nmol blockade		uptake	0.52 ± 0.07 %ID/g
N=C(N)NCCC[C@@H]1NC(=O)[C@H](CCCCNC(=O)CNC(=O)CNC(=O)CNC(=O)CC[C@H](NC(=O)CCOCCOCCOCCOCCNC(=O)CC[C@H](NC(=O)CN2CCN(CC(=O)O)CCN(CC(=O)O)CCN(CC(=O)O)CC2)C(=O)NCCOCCOCCOCCOCCC(=O)N[C@@H](CCC(=O)NCC(=O)NCC(=O)NCC(=O)NCCCC[C@@H]2NC(=O)[C@@H](Cc3ccccc3)NC(=O)[C@H](CC(=O)O)NC(=O)CNC(=O)[C@H](CCCNC(=N)N)NC2=O)C(=O)NCC(=O)NCC(=O)NCC(=O)NCCCC[C@@H]2NC(=O)[C@@H](Cc3ccccc3)NC(=O)[C@H](CC(=O)O)NC(=O)CNC(=O)[C@H](CCCNC(=N)N)NC2=O)C(=O)NCC(=O)NCC(=O)NCC(=O)NCCCC[C@@H]2NC(=O)[C@@H](Cc3ccccc3)NC(=O)[C@H](CC(=O)O)NC(=O)CNC(=O)[C@H](CCCNC(=N)N)NC2=O)NC(=O)[C@@H](Cc2ccccc2)NC(=O)[C@H](CC(=O)O)NC(=O)CNC1=O [indium-111 labelled]		female athymic nude mice, lungs	intravenous, 3 µCi, 24 h, U-87 MG glioma xenograft		tissue uptake	1.04 ± 0.04 %ID/g
CCCC[C@H](NC(=O)CCCCCCCNC(=O)c1ccc(NN)nc1)C(=O)N[C@H]1CC(=O)NCCCC[C@@H](C(N)=O)NC(=O)[C@H](Cc2c[nH]c3ccccc23)NC(=O)[C@H](CCCNC(=N)N)NC(=O)[C@@H](Cc2ccccc2)NC(=O)[C@H](Cc2c[nH]cn2)NC1=O [technetium-99m labelled]		C57 mouse, B16/F1 melanoma, kidneys	intravenous, 4 h		uptake	6.1 ± 0.72 %ID/g
